Measured values gathered from unrelated publications.
Each numbered part is a random draw from the data of one study; scales do not carry over between parts. Several values in a cell are separate wells, animals, samples, runs or records.
UniProt Q15349, sequence (whole entry, looked up): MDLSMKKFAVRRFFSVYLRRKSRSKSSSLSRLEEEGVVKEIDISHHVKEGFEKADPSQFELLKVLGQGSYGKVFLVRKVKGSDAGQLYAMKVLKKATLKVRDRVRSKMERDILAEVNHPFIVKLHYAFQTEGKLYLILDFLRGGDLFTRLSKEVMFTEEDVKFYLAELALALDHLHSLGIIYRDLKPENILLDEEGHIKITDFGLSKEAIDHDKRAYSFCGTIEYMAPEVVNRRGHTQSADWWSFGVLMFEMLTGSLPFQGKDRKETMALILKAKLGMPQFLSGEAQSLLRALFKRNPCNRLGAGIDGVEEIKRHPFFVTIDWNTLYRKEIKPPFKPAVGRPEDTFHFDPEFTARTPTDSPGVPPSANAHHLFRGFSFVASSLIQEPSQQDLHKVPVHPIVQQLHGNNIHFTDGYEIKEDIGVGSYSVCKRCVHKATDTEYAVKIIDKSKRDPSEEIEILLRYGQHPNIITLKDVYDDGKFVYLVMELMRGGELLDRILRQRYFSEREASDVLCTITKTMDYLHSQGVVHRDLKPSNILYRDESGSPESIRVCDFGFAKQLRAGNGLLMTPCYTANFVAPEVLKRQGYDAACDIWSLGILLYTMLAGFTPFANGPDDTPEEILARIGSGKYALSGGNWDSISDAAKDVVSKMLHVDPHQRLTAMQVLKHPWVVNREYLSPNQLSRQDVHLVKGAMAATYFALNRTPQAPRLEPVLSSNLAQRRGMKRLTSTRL
UniProt Q09013, sequence (whole entry, looked up): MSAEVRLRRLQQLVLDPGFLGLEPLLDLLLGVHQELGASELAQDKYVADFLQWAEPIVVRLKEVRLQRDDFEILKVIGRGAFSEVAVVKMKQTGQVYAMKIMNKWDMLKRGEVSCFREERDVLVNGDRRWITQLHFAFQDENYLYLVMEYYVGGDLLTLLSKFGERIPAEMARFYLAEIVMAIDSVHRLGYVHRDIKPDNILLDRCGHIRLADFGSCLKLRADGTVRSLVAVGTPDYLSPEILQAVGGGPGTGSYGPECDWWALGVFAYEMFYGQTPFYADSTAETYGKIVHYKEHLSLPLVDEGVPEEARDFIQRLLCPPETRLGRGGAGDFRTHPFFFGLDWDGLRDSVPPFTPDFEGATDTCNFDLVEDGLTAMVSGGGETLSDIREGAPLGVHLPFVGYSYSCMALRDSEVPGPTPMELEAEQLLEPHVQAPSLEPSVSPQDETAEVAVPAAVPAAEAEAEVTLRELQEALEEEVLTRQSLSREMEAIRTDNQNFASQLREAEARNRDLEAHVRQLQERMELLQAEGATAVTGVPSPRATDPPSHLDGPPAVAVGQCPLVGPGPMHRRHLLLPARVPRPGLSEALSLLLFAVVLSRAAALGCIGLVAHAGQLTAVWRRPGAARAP
UniProt Q8N752, sequence (whole entry, looked up): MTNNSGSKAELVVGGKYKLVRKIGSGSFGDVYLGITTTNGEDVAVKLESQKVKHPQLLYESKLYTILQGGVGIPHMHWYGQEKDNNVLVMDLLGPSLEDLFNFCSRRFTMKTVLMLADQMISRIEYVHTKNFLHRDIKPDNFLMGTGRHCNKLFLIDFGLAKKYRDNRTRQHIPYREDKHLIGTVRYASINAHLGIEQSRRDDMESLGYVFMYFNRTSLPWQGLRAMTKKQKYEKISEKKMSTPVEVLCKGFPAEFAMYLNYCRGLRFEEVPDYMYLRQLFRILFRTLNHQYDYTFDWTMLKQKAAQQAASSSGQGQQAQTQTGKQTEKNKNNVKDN
UniProt P49841, sequence (whole entry, looked up): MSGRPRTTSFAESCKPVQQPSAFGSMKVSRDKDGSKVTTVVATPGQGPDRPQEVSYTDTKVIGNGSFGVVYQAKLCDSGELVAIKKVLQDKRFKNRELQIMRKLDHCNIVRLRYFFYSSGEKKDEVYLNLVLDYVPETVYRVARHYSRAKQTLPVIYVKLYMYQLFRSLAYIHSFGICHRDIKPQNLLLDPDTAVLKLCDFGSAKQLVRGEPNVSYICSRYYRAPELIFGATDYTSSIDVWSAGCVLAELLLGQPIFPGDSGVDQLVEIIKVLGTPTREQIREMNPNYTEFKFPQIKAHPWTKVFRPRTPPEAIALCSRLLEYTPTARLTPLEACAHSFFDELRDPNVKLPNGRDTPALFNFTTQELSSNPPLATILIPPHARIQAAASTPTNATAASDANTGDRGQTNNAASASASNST
UniProt P29322, sequence (whole entry, looked up): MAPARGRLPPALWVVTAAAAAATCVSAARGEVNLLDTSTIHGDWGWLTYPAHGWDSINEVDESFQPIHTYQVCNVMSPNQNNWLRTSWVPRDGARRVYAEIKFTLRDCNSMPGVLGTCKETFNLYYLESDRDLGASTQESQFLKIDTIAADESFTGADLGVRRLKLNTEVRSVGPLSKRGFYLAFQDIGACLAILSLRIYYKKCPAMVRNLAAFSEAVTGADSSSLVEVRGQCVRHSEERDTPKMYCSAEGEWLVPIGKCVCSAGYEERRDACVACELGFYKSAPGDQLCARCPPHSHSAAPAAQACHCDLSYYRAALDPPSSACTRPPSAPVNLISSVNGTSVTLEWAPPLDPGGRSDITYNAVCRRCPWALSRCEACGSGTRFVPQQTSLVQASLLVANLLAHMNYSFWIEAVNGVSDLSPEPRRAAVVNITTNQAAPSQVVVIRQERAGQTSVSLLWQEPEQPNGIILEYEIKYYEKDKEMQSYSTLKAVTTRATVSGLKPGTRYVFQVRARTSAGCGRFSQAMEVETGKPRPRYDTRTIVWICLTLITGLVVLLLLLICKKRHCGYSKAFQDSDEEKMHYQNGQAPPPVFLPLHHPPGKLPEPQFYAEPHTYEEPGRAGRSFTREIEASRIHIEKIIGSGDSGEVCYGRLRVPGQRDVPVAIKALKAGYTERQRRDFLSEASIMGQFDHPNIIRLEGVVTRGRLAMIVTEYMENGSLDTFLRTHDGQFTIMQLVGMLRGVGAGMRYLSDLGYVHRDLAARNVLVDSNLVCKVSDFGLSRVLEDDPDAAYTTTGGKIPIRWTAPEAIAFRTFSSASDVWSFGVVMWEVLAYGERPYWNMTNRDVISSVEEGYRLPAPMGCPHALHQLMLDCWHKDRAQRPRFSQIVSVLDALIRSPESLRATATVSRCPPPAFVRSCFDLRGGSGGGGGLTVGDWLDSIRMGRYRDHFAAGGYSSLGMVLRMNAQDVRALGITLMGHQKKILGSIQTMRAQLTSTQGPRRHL
UniProt Q9NRP7, sequence (whole entry, looked up): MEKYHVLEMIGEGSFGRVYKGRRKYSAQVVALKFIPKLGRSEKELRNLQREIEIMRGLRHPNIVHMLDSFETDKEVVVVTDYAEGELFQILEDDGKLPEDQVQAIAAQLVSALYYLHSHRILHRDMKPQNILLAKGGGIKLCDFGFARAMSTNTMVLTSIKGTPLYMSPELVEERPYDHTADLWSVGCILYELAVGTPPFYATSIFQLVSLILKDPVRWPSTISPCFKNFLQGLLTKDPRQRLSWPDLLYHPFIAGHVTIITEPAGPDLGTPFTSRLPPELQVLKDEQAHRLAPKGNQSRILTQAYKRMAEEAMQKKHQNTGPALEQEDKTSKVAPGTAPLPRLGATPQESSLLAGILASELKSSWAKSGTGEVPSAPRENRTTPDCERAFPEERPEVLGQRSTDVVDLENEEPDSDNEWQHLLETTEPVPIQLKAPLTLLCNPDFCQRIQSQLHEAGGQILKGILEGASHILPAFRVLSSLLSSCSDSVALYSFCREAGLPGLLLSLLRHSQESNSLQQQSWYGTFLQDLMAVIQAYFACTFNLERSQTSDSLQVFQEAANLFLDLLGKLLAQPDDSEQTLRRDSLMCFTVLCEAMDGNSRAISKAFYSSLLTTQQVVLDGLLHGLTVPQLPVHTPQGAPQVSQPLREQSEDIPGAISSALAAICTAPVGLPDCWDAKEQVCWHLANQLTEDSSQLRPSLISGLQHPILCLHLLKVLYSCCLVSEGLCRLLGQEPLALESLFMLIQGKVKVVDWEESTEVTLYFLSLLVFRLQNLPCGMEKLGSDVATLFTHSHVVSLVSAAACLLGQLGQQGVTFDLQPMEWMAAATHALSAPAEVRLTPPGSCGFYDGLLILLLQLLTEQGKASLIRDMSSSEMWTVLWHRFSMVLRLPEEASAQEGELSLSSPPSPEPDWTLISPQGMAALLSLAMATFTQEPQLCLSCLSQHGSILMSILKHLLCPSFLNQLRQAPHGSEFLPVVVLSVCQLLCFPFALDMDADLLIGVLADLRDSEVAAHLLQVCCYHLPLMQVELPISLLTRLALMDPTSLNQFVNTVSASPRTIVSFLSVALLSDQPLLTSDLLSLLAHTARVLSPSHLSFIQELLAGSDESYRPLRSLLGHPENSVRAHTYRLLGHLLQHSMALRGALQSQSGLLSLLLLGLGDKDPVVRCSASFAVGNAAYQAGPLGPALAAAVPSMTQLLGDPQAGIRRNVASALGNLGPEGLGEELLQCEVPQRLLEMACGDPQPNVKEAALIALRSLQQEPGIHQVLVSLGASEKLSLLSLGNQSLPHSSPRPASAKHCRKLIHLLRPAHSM
UniProt Q52WX2, sequence (whole entry, looked up): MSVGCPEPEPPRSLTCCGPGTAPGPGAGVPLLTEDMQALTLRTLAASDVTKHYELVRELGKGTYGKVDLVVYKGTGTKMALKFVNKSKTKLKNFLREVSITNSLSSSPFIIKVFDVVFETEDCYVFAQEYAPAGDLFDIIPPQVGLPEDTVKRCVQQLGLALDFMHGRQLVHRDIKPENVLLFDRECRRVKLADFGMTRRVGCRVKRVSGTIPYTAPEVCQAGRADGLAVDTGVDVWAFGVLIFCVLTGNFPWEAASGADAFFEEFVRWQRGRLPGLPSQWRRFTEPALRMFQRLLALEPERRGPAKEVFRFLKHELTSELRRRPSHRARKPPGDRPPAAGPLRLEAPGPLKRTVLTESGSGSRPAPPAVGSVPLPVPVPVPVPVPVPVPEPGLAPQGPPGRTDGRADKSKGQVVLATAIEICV

Set 1
Cell line: A-375
Tested at: 100 µM
Time: 18 h
The viability of `Cc1cc(C(C#N)c2ccc(Cl)cc2)c(Cl)cc1NC(=O)c1cc(I)cc(I)c1O` (stereo not shown) is reported as 12.7%.
`COc1ccc(-c2cc(=O)c3c(O)c(OC)c(O)cc3o2)cc1OC` has a viability of 94.6%.
With `COCCc1ccc(OCC(O)CNC(C)C)cc1` (stereo not shown) the viability was 101%.
The viability of `C[C@H](CCC(=O)O)[C@H]1CC[C@H]2[C@@H]3CC[C@@H]4C[C@H](O)CC[C@]4(C)[C@H]3C[C@H](O)[C@]12C` is reported as 96.9%.
The viability of `O=c1cc[nH]c(=O)[nH]1` is reported as 107%.
`O=c1ccc2ccc(O)c(O)c2o1` has a viability of 103%.
With `O=C(O)CCNC(=O)c1ccccc1` the viability was 91.1%.

Set 2
Organism: Sarcocystis neurona
Read-out: parasite activity
Tested at: 10 µM
Time: 96 h
`O=C(CCCN1CC=C(n2c(=O)[nH]c3ccccc32)CC1)c1ccc(F)cc1`: activity class “inactive”.
`Nc1nc(O)c2ncn(COC(CO)CO)c2n1` — result for activity class: “inactive”.
Under activity class, `CC(=O)OCC(=O)[C@@]1(O)CC[C@H]2[C@@H]3CCC4=CC(=O)CC[C@]4(C)[C@H]3C(=O)C[C@@]21C` is recorded as “inactive”.
For `COC(=O)C1=C(C)NC(C)=C(C(=O)OCCN(C)Cc2ccccc2)C1c1cccc([N+](=O)[O-])c1` (stereo not shown), activity class read “inactive”.
Under activity class, `CS(=O)(=O)c1ccc(C2=C(c3ccccc3)C(=O)OC2)cc1` is recorded as “inactive”.

Set 3
SMILES: Cn1nc(C(F)(F)F)cc1-c1cnc(N2CCc3cc(S(=O)(=O)Nc4c(F)cc(Cl)cc4F)cc(N4CCCC4=O)c32)nc1
Tested at: 1 µM
It gave 100% for remaining binding (Cyclin-dependent kinase 19 (CDK19, Homo sapiens, UniProt Q9BWU1); competition binding).
The remaining binding was 92% (Serine/threonine-protein kinase SBK1 (SBK1, Homo sapiens, UniProt Q52WX2); cell-free assay, competition with immobilised ligand).
Tyrosine-protein kinase ABL1, non-phosphorylated (ABL1, Homo sapiens, UniProt P00519, F317L); cell-free assay, competition with immobilised ligand — remaining binding: 60%.
The remaining binding was 100% (LIM domain kinase 2 (LIMK2, Homo sapiens, UniProt P53671); cell-free assay, competition with immobilised ligand).
It gave 100% for remaining binding (Ribosomal protein S6 kinase alpha-2, N-terminal kinase domain (RPS6KA2, Homo sapiens, UniProt Q15349); cell-free assay, competition with immobilised ligand).
For Ephrin type-A receptor 8 (EPHA8, Homo sapiens, UniProt P29322); cell-free assay, competition with immobilised ligand: remaining binding read 65%.
Casein kinase I isoform alpha-like (CSNK1A1L, Homo sapiens, UniProt Q8N752); cell-free assay, competition with immobilised ligand — remaining binding: 100%.
For Epidermal growth factor receptor (EGFR, Homo sapiens, UniProt P00533, L858R); cell-free assay, competition with immobilised ligand: remaining binding read 100%.
The remaining binding was 100% (Glycogen synthase kinase-3 beta (GSK3B, Homo sapiens, UniProt P49841); cell-free assay, competition with immobilised ligand).
Myotonin-protein kinase (DMPK, Homo sapiens, UniProt Q09013); cell-free assay, competition with immobilised ligand — remaining binding: 82%.
The remaining binding was 100% (Dual specificity tyrosine-phosphorylation-regulated kinase 1B (DYRK1B, Homo sapiens, UniProt Q9Y463); cell-free assay, competition with immobilised ligand).
The remaining binding was 100% (Serine/threonine-protein kinase 36 (STK36, Homo sapiens, UniProt Q9NRP7); cell-free assay, competition with immobilised ligand).

Further values, each from its own experiment
`CC(C)(C)c1cnc(CSc2cnc(NC(=O)C3CCNCC3)s2)o1` has a tumour volume of 62.5 mm³ and 33 mm³ and 60.3 mm³ and 71.2 mm³ and 52.3 mm³ and 49.4 mm³ and 71.4 mm³ (nude mouse, HH xenograft; dose not given, day 4).

A few entries again (set 3):
It gave 100% for remaining binding (Cyclin-dependent kinase 19 (CDK19, Homo sapiens, UniProt Q9BWU1); competition binding).
The remaining binding was 100% (Dual specificity tyrosine-phosphorylation-regulated kinase 1B (DYRK1B, Homo sapiens, UniProt Q9Y463); cell-free assay, competition with immobilised ligand).
The remaining binding was 92% (Serine/threonine-protein kinase SBK1 (SBK1, Homo sapiens, UniProt Q52WX2); cell-free assay, competition with immobilised ligand).
